Measurements pooled from the literature.
Each numbered part is a random draw from the data of one study; scales do not carry over between parts. Changes are numbered by the printed parent chain.

Series 1
Target: CCNB1, cyclin fold, Cln2 fusion (human)
Method: yeast growth competition, sequencing
Matrix: yeast
Notes: weak parent motif
Baseline: not given
Reading: higher = stronger binding
Parent: GMNC docking peptide (human); KNAKRNLSSEFAN
| Variant | normalised enrichment score |
| --- | --- |
| KNAKRNLSSEIAN [F11I] | 0.238 |
| KNAKQNLSSEFAN [R5Q] | 0.22 |
| KNADRNLSSEFAN [K4D] | -0.303 |
| KNAKRNLSSEPAN [F11P] | -0.41 |
| KFAKRNLSSEFAN [N2F] | 0.219 |

Series 2
Target: Histone acetyltransferase KAT6A, both winged helices, GST fusion (KAT6A, Homo sapiens, UniProt Q92794, residues 1-181)
Method: protein binding microarray
Molecule type: double-stranded DNA, one strand shown
Matrix: in vitro
Tested at: not given
Notes: 8-mer, flanks averaged, mean of 2 arrays, mostly near background
Baseline: not given
Reading: higher = stronger binding
Construct (chain): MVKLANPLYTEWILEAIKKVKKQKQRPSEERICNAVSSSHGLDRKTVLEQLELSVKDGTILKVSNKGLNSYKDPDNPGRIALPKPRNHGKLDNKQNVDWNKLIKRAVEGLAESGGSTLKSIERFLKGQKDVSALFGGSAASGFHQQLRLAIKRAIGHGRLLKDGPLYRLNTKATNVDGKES
| Sequence | E-score |
| --- | --- |
| CAGGAAGC | -0.132 |
| ACGCGTAT | 0.262 |
| ACTTCAGC | -0.0543 |
| GACCTAAA | 0.00263 |
| CTCCATGC | -0.187 |
| TCCTCCCA | -0.0182 |
| AGCCTTCG | -0.0991 |

Series 3
Target: Fragile X messenger ribonucleoprotein 1, C-terminal low-complexity region (Fmr1, Mus musculus, UniProt P35922)
Method: RNA Bind-n-Seq
Molecule type: RNA
Matrix: in vitro
Tested at: 200 nM
Notes: whole 134-nt RNA, ends assumed
Together with: 150 mM LiCl
Baseline: input library
Reading: higher = stronger binding
Library: 7-deaza-guanosine replaces G
| Sequence | log2 enrichment |
| --- | --- |
| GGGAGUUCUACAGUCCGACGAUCUCCUGUGCUACACAUCGUAUGUACCGAAUCGGGGCCCCCGGCCCCCGGGGCCCCCGGGGAAAGUAUUAUGUUACGCCGUUCGGAUCUGCAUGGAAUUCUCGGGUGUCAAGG | -2.84 |
| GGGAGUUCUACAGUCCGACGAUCCCUGUGCUACACAUCGUAUGUACCGAAUCGGGCCCCCCGGGCCCCCCGGGGCCCCCCGGGGAAAGUAUUAUGUUACGCCGUUCGGAUCUGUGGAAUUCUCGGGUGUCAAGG | -2.3 |
| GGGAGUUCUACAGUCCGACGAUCGUCCUGUGCUACACAUCGUAUGUACCGAAUCGGUUUUUUGGGUUUUUUGGUUUUUUGGAAAGUAUUAUGUUACGCCGUUCGGAUCUGCACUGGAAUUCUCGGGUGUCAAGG | -1.57 |
| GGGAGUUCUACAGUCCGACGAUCCACAGACAACACGCACCCACACAGACACAGAGGGUAGGGGUUGGGAUGGGGACAGGGUGCACAGCAGGGCGGGGUAGGACCCCAGCCCCUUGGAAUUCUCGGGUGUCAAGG | -0.548 |
| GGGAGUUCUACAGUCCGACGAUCACCAUGCAGGUGGGCAUCUUUGGGAAGUGGGGCAAGGGGGGGAUAGGGAGGGCGGUAACACUUUGGGAACAGGUGGUCCCAGGUCGUUUCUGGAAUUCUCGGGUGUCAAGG | 0.605 |
| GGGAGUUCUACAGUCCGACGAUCUAACUUUAGAGAAGGAUCUGAUGGAUAUGGCAGUGGACGUGGAUUUGGGGAUGGCUAUAAUGGGUAUGGAGGAGGACCUGGAGGUGGCAAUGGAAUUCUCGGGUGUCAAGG | 0.058 |

Further values, each from its own experiment
| Molecule | target | assay | test system | setting | how to read | measurement | result |
| --- | --- | --- | --- | --- | --- | --- | --- |
| PhoQ, residues 284 288 289 292 302 303 QWGLFV | PhoP, residues 12 14 15 18 19 HLGGL (Escherichia coli, UniProt P23836) | Sort-seq, measured: YFP reporter | E. coli | PhoQ-PhoP variant library, together with: 10 µM Mg2+ | baseline: high Mg2+ state, higher = stronger signaling | fold induction | 1.33 |
